Experimental data pooled from the literature.
Parts stem from different laboratories: compare values within a part only. Substitutions count along the parent as printed.

Set 1 — technique: protein-binding microarray; molecule type: double-stranded DNA, one strand shown; matrix: in vitro; concentration: 2540 nM top; setting: 60-bp whole probe; with: salmon DNA 0.4 mg/ml; baseline: random background probes; direction: higher = stronger binding; measurement: fitted relative affinity; all sequences stand within: GCCTAGCAC … GTCTTGATTCGCTTGACGCTGCTG
Target: Interferon regulatory factor 3, full length, phosphomimetic (IRF3, Homo sapiens, UniProt Q14653, residues 1-427, S386D/S396D/S398D/S402D/T404D/S405D)
Sequence of UniProt Q14653 (whole entry, unmodified, looked up): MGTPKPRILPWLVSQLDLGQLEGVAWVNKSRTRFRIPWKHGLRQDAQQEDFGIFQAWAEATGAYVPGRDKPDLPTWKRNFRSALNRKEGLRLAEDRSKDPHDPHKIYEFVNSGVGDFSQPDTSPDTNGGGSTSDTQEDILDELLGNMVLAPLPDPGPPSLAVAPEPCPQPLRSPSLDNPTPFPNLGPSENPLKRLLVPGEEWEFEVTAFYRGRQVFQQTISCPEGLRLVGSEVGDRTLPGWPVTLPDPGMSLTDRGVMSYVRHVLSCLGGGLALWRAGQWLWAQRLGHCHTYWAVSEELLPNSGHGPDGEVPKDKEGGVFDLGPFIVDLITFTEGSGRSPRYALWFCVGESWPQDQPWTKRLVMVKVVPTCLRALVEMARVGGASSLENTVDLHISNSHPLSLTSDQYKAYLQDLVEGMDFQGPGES
Sequence = TTAGAACCGAGTTTCGATTAGTGCTAG; value = 2.58 z-score
Sequence = TTAGGTCTCGGACTGGGATAGTGCTAG; value = -0.175 z-score
Sequence = TTGGGTCTCCTTATCCTTTAGTGCTAG; value = 1.68 z-score
Sequence = GACGGTAGCCTTATCCTGACGTGCTAG; value = 0.837 z-score
Sequence = AATCAACTTTTTTTAATTGAGTGCTAG; value = 0.598 z-score
Sequence = GTGTTCTGGGCAGCAGAGGGGTGCTAG; value = -0.63 z-score
Sequence = CTAGGTATCGGGTATCGGTTAGTGCTA; value = 2.06 z-score
Sequence = TTGGGTCTCGGTTTCGGTTAGTGCTAG; value = 4.77 z-score
Sequence = TCATGCCTATTTTTCCCACTGTGCTAG; value = 0.448 z-score
Sequence = GACGATATCGGACTGGGGACGTGCTAG; value = 0.0735 z-score
Sequence = TCATTTCTTTTTTTCTTACTGTGCTAG; value = 3.33 z-score
Sequence = TTAGAGTCCAGTTTCGATTAGTGCTAG; value = 3.56 z-score
Sequence = GACGCTTTCGGGTTTCGGGACGTGCTA; value = 3.12 z-score
Sequence = GACGGTATCGGTATCGGCACGTGCTAG; value = 4.37 z-score
Sequence = TTAGGTATCGGTATCGGTAAGTGCTAG; value = 5.26 z-score
Sequence = GACGATATCGGACTGGAGACGTGCTAG; value = 0.363 z-score
Sequence = GACGGTTTCGTTTCCCTGACGTGCTAG; value = 8.25 z-score
Sequence = TCATGTGTCAACTTTCTCACTGTGCTA; value = 0.58 z-score
Sequence = TTAGGTCTCGGGTTCGGTTAGTGCTAG; value = 0.177 z-score
Sequence = TTTGGTCTCGGTCTCGGTTAGTGCTAG; value = 1.29 z-score
Sequence = TTAAATTTTAATAACACAGAGTGCTAG; value = -0.129 z-score
Sequence = TTAGAACTAAGTTTCGATTAGTGCTAG; value = 3.27 z-score

Set 2 — technique: aptamer microarray, sandwich; molecule type: DNA with 2'F-ANA; matrix: in vitro; concentration: 200 nM; with: Cy3 exosite-II aptamer, 400 nM; direction: higher = stronger binding; measurement: mean fluorescence intensity; sequence: GGTTGGTGTGGTTGG
Target: Prothrombin, mature alpha-thrombin (F2, Homo sapiens, UniProt P00734)
Setting: whole 15-mer aptamer, many near background
Modification = 2'F-ANA at 1 2 4 5 8 9 12; value = 126 a.u.
Modification = 2'F-ANA at 3 4 5 7 8 9 11 12 13; value = 120 a.u.
Modification = 2'F-ANA at 2 4 5 6 7 14; value = 53.7 a.u.
Modification = 2'F-ANA at 1 2 5 6 8 9 11 12; value = 91.2 a.u.
Modification = 2'F-ANA at 2 6 7 11 13 14; value = 101 a.u.
Modification = 2'F-ANA at 2 3 5 6 7 10 14 15; value = 48.1 a.u.
Modification = 2'F-ANA at 3 4 5 6 9 11 12 13 15; value = 92.8 a.u.
Modification = 2'F-ANA at 1 2 3 5 11 12 15; value = 98.2 a.u.
Modification = 2'F-ANA at 3 6 9 11 12 13; value = 965 a.u.
Modification = 2'F-ANA at 6 9 10 11 12 13; value = 153 a.u.
Modification = 2'F-ANA at 2 3 4 5 7 8 9 12 15; value = 191 a.u.
Modification = 2'F-ANA at 2 3 4 11 12 14 15; value = 373 a.u.
Modification = 2'F-ANA at 1 2 3 5 7 8 10 11 12 13 14; value = 56.7 a.u.
Modification = 2'F-ANA at 1 3 4 5 6 8 9 11 12 13; value = 69.6 a.u.
Modification = 2'F-ANA at 1 2 4 5 7 9 10 12; value = 50.6 a.u.
Modification = 2'F-ANA at 3 5 9 10 11 13; value = 76.1 a.u.
Modification = 2'F-ANA at 2 4 6 8 12 13; value = 377 a.u.
Modification = 2'F-ANA at 1 2 5 7 9 10 12; value = 49.8 a.u.
Modification = 2'F-ANA at 6 7 9 10 11 14; value = 98.9 a.u.
Modification = 2'F-ANA at 3 4 5 14; value = 50.9 a.u.
Modification = 2'F-ANA at 1 2 4 5 7 8 11 12 14 15; value = 48.5 a.u.
Modification = 2'F-ANA at 3 4 5 7 10 14 15; value = 51.1 a.u.
Modification = 2'F-ANA at 2 3 7 8 9 11 12 13 15; value = 818 a.u.
Modification = 2'F-ANA at 1 2 3 4 8 11 12 13 14; value = 76.3 a.u.
Modification = 2'F-ANA at 1 7 8 11 12 13 14 15; value = 75.5 a.u.

Set 3 — target: CEBPD, bZIP domain (human); technique: DHFR protein complementation; matrix: yeast; baseline: wild-type JUN-FOS pair; direction: higher = stronger binding; measurement: binding fitness
Setting: single substitutions, most at no-binding floor
Starting sequence: JUN, bZIP domain (human); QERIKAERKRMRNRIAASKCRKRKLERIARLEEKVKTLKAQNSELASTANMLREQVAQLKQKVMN; partner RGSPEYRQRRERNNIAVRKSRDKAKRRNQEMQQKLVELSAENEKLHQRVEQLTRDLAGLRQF
Change = T37K; value = -1.34 natural log
Change = L45N; value = -1.48 natural log
Change = T48N; value = -1.08 natural log
Change = A49T; value = -1.5 natural log
Change = R53S; value = -1.22 natural log
Change = K36R; value = -1.28 natural log
Change = V56H; value = -1.5 natural log
Change = A40D; value = -1.25 natural log
Change = R53D; value = -1.36 natural log
Change = S47D; value = -1.32 natural log
Change = R30S; value = -1.22 natural log
Change = E44G; value = -1.47 natural log
Change = L31H; value = -1.07 natural log
Change = V35H; value = -1.47 natural log
Change = A49Q; value = -1.41 natural log
Change = K34S; value = -1.41 natural log
Change = M51T; value = -1.35 natural log
Change = V35A; value = -1.4 natural log
Change = L52F; value = -1.27 natural log
Change = K39A; value = -1.26 natural log

Set 4 — organism: Saccharomyces cerevisiae; read-out: cell growth; technique: competitive growth deep sequencing; molecule type: peptide; setting: peptide tiling library; with: cyclin E2-Cln2 fusion; direction: direction not given; measurement: enrichment score
Molecule = EPRNLLSLFEDTLDPT; value = 0.521
Molecule = VLPGGVPSPGASLTSM; value = -1.08
Molecule = RTEALEQGGLPKKLIF; value = 0.724
Molecule = LENIEPLQVSFAVLSS; value = 1.08
Molecule = YLYLLLTQSLWCRV; value = -0.616
Molecule = DVSERGYVILPNDYFE; value = 0.584
Molecule = AKRSLGFLPQPVPL; value = -0.15
Molecule = QYQVVDDIVSKLVFDF; value = 0.612
Molecule = AEHPKPSACRNLFGPV; value = 0.965
Molecule = KVRRNLFNQELLSP; value = 0.956
Molecule = QNPCGSKACRRLFGPV; value = 0.17
Molecule = NEGVSNAVRRSLYIRD; value = -0.901
Molecule = EHCRVLFLDHVMYTIH; value = -1.39

Some of these lines once more (set 1):
Sequence = TTGGGTCTCGGTTTCGGTTAGTGCTAG; value = 4.77 z-score
Sequence = TCATGCCTATTTTTCCCACTGTGCTAG; value = 0.448 z-score
Sequence = GACGATATCGGACTGGGGACGTGCTAG; value = 0.0735 z-score
Sequence = TCATTTCTTTTTTTCTTACTGTGCTAG; value = 3.33 z-score
Sequence = TTAGAGTCCAGTTTCGATTAGTGCTAG; value = 3.56 z-score
Sequence = GACGCTTTCGGGTTTCGGGACGTGCTA; value = 3.12 z-score
Sequence = GACGGTATCGGTATCGGCACGTGCTAG; value = 4.37 z-score
Sequence = TTAGGTATCGGTATCGGTAAGTGCTAG; value = 5.26 z-score
Sequence = GACGATATCGGACTGGAGACGTGCTAG; value = 0.363 z-score
Sequence = GACGGTTTCGTTTCCCTGACGTGCTAG; value = 8.25 z-score
Sequence = TCATGTGTCAACTTTCTCACTGTGCTA; value = 0.58 z-score
